Published values from different studies.
Compare with care: the assays were run in different laboratories. Numbers after ± are the reported error. In brackets after ≈: the same amount, converted by molar mass.

O=C(Nc1cnccc1Cl)N1CCN(Cc2ccc3c(c2)OC(F)(F)O3)CC1  dose-normalized AUC(0-tau) (young men, plasma; oral, 75 mg once daily, day 10, normalized to 10 mg): 1510 ng·h/mL
O=C(COc1ccc(Cl)cc1)NC12CC(c3nnc([C@H]4C[C@@H](OC(F)(F)F)C4)o3)(C1)C2  adverse event incidence (measured: Hypogeusia; human; 100 mg once daily, 28 (unit not given)): 10%
CCc1cc(C(=O)NC)c2nccc(N3CCc4c(cc(Cn5ccnc5)cc4-c4cn(C)nc4C(F)(F)F)C3=O)c2c1  liver weight change (Sprague Dawley rat; oral, 50 mg/kg once daily, 7 days; baseline: vehicle): 0.78%
CCO[C@H]1CCN(Cc2c(OC)cc(C)c3[nH]ccc23)[C@H](c2ccc(C(=O)O)cc2)C1  unbound half-life (healthy volunteers, plasma; oral, 200 mg single dose, geometric mean): 14 h
CCn1ncc2c1-c1cnc(N)c(c1)O[C@H](C)c1cc(F)ccc1-c1nn(C)nc1C2  unbound plasma concentration (female athymic nude mice, sample A PDX; oral, 5 mg/kg once daily for 1 days, 1 h): 550 ± 6 nM
Nc1ncnc2c1ncn2[C@H]1C[C@@H]2OP(=O)(O)OC[C@H]3O[C@@H](n4cnc5c(N)ncnc54)C[C@@H]3OP(=O)(O)OC[C@H]2O1  MCHC (non-tumor-bearing mice, blood; intravenous, 1 mg/kg, toxicity study): 591.8 ± 5.91 g/L
CCCCCCCCCCCCCCCC(=O)N[C@@H](CCC(=O)NCCCC[C@@H]1NC(=O)[C@H]([C@@H](C)CC)NC(=O)[C@@H](NC(=O)[C@@H]2CCCN2C(=O)[C@H](Cc2ccccc2)NC(=O)[C@H](Cc2c[nH]cn2)NC(=O)[C@@H](NC(=O)[C@H](CC(=O)O)NC(=O)CC(C)C)[C@@H](C)O)CSSC[C@@H](C(=O)N[C@@H](CCCCN)C(N)=O)NC(=O)CNC(=O)[C@H](CCCCN)NC(=O)[C@H](CO)NC(=O)[C@H](CCCNC(=N)N)NC(=O)[C@@H]2CCCN2C(=O)[C@H](CCC(=O)O)NC(=O)[C@H](Cc2ccccc2)NC1=O)C(=O)O  AUC(0-inf) share of total (healthy volunteers, plasma; subcutaneous, 30 mg; baseline: parent plus metabolites): 58.2 ± 4.16%
Cc1ccc(C(=O)N(CCCN)C(c2nc3snc(C)c3c(=O)n2Cc2ccccc2)C(C)C)cc1 (stereo not shown)  grade ≥3 hyperbilirubinemia patients (human patients; intravenous, 13 mg/day): 0%
Cc1cccc(CNC(=O)c2cn(CCNC(=O)c3ccccc3Sc3c([N+](=O)[O-])ncn3C)c3cc4c(cc3c2=O)OCO4)n1  remaining compound (Beagle dog, whole blood; 1 µM, 0.25 h): 92.2%
CN(C(=O)n1cnc(-c2ccc[n+]([O-])c2)c1)[C@H]1CC[C@H](O)CC1  concentration (Wistar rat, midbrain; oral, 10 mg/kg of BIA 10-2474, 4 h, single dose): 14.1 ± 0.4 ng/g
Cc1ccc([C@@H]2O[C@H](CO)[C@@H](O)[C@H](O)[C@H]2O)cc1Cc1ccc(-c2ccc(F)cc2)s1  urinary chloride excretion change (Japanese type 2 diabetes patients; 25 mg, day 3, 24 h urine collection; baseline: baseline): -11.1 mEq
O=C(O)CCC(=O)O.[2H]C([2H])([2H])Oc1cc(C)c2[nH]ccc2c1CN1CC[C@@H](C2CC2)C[C@H]1c1ccc(C(=O)O)cc1  subjects with TEAE Eczema (multiple ascending dose; healthy Chinese subjects; 50 mg twice daily): 0%
CCOc1c([C@H](C)n2nc(C)c3c(N)ncnc32)cc(Cl)c(F)c1[C@@H]1CNC(=O)C1  Cmax geometric mean (patients, monotherapy; oral, 30 mg once daily, cycle 1 day 1): 3190 nM
CC(C)Oc1c(NC(=O)c2ccc(NC(=O)[C@H](CC(N)=O)NC(=O)c3ccc(/N=N/c4ccccc4)cc3)cc2)ccc(C(=O)N/N=C/c2ccc(C(=O)O)s2)c1O  thermal half-life (absorbance; DMSO; 50 °C, PSS to ground state relaxation): 0.8 h
Cc1ccc(Sc2ccccc2N2CCNCC2)c(C)c1  participants with TEAE (measured: thermal burn; healthy adult women; oral, 10 mg daily, 12 days): 0%
COc1ncc(-c2nc3c(n2C(C)C)[C@H](c2ccc(Cl)cc2)N(c2cc(Cl)cn(C)c2=O)C3=O)c(OC)n1  Cmax (LC-MS/MS; human, plasma; oral, 15 mg, cycle 1 day 14, low-dose arm): 106 ng/mL
C[C@H](CCC(=O)NCC(=O)O)[C@H]1CC[C@H]2[C@@H]3CC[C@@H]4C[C@H](O)CC[C@]4(C)[C@H]3CC[C@]12C  relative peak deviation (human, plasma; endogenous control diurnal; baseline: daily mean concentration): 147 ± 20%
COc1cccc(OC)c1-c1cc(C(=O)NC2(C(=O)O)C3CC4CC(C3)CC2C4)nn1-c1ccc(C(=O)N(C)CCCN(C)CCCN(C)C(=O)CN2CCN(CC(=O)[O-])CCN(CC(=O)[O-])CCN(CC(=O)[O-])CC2)cc1C(C)C.[177Lu+3] (stereo not shown)  tumour-to-spleen ratio (mouse HT-29 xenograft; 72 h, biodistribution; baseline: tumour over spleen): 41.4
CCO  blood triglycerides increased (human; concentration not given, treatment-emergent adverse event): 0%
COc1cc(Nc2ncc3c(n2)-c2ccc(Cl)cc2C(c2c(F)cccc2OC)=NC3)ccc1C(=O)O  patients with adverse event (measured: acneiform rash, grade 2; cancer patients, phase 1/2; oral, dose not given, together with: pembrolizumab): 4%
Cc1cc(NC2CCN(C(=O)OC3CCN(C(=O)/C=C/CN(C)C)C3)CC2)n2ncc(C(C)C)c2n1 (stereo not shown)  patients with adverse event (Phase I dose escalation CTCAE v4.0, measured: Arthralgia; patients with advanced solid tumours; dose not given, all dose schedules any grade): 9%
Cl.[2H]C([2H])([2H])CC(=O)c1cnc(NC(=O)C2CC2)cc1Nc1cccc(-c2ncn(C([2H])([2H])[2H])n2)c1OC  Vz/F (geometric mean; human; oral, 20 mg once daily, day 1, fasted, liquid, multiple dose): 149 L
COc1ccc2c(c1)CN(C(=O)CCN1CCC(Cc3ccccc3)CC1)CC[S@@+]2[O-]  blood concentration (beagle dog, female; intravenous, 8 mg/kg, day 1, 14-day toxicity study): 5560 ± 2730 ng/mL
CC(C)(N)COCC(=O)N1CCC[C@H](C(=O)NCc2nc(-c3ccc(C(F)(F)F)cc3)cs2)C1  urinary excretion (Sprague-Dawley rat, male, urine; intravenous, 1 mg/kg, 24 h; baseline: dose): 4.7%
OC[C@H]1O[C@@H](c2ccc(Cl)c(Cc3ccc(O[C@H]4CCOC4)cc3)c2)[C@H](O)[C@@H](O)[C@@H]1O  change in LDL cholesterol (Japanese type 1 diabetes patients, blood; 10 mg, day 28; baseline: baseline): 1.58 mg/dL
CNCc1ccc(-c2[nH]c3cc(F)cc4c3c2CCNC4=O)cc1  dizziness incidence (human patients; oral, 240 mg twice daily, all grades): 33.3%
N#C[C@@]1(c2ccc3c(N)ncnn23)O[C@H](CO)[C@@H](O)[C@H]1O  unbound fraction (plasma protein binding; rat plasma; 100 µM): 0.935
NC1(C(=O)N[C@@H](CCO)c2ccc(Cl)cc2)CCN(c2ncnc3[nH]ccc23)CC1  geometric mean Cmax (human patients, plasma; 80 mg twice daily, day 8, continuous dosing): 172 ng/mL
NS(=O)(=O)c1ccc(-n2nc(C(F)(F)F)cc2-c2ccc(C(=O)O)cc2)cc1  blood-to-plasma ratio (Sprague-Dawley rat; oral, 20 mg/kg of celecoxib, 4 h): 2.3
CNC(=O)c1ccc(-c2cnc3ncc(Cc4ccc5ncccc5c4)n3n2)cc1F  patients with adverse event (measured: Fatigue, all grades; hepatocellular carcinoma patients; oral, 600 mg twice daily, expansion cohort, any causality): 27%
O=[N+]([O-])c1cn2c(n1)OC[C@@H](OCc1ccc(N3CCCCC3)nc1)C2  aqueous solubility (aqueous buffer; pH 7.4): 22.7 µg/mL (≈ 63.2 µM)
CN1CCN(c2cccc3c2CCN(C(=O)/C=C/c2c(-n4cnnn4)ccc(Cl)c2F)[C@@H]3C(=O)Nc2ccc(C(=O)O)cc2)C(=O)C1  subjects with any adverse event (healthy human subjects; intravenous infusion, 3 mg/h, 5 days): 12.5%
CCN1/C(=C/C(C)=O)Sc2ccc(F)cc21  diastolic blood pressure change (cynomolgus monkey; oral, 10 mg/kg, 6 h post-dose; baseline: pre-dose): 114 ± 14.2%
CC(C)(C(=O)N1CCOc2c(C#N)cncc2C1)C(F)F  subjects with tachycardia TEAE (human, both sexes; oral, 40 mg single dose): 0%
Cc1cc(C)c(CNC(=O)c2cc(Cl)c3c(c2C)O[C@@](C)([C@H]2CC[C@H](N(C)C)CC2)O3)c(=O)[nH]1  patients with TEAE (CTCAE v4.0, measured: aspartate aminotransferase increased; human relapsed/refractory NHL; oral, 200 mg once daily, onset after cycle 1 day 1, overall treatment period): 16.7%
CCO[C@H]1CCN(Cc2c(OC)cc(C)c3[nH]ccc23)[C@H](c2ccc(C(=O)O)cc2)C1  incidence of abdominal distension (PNH patients, active haemolysis; oral, 100 mg, 8 weeks, treatment): 0%
CC(C)[C@H](C(=O)Nc1ccc(C(=O)NO)cc1)c1ccccc1  measured concentration (whole blood; 1000 ng/mL, 1 h, 4 °C, stability on ice): 1120 ng/mL
O=C(c1cccnc1-c1ccncc1)N1CCC(O)(Cc2ccccc2)CC1  terminal elimination rate constant (healthy Japanese adults, plasma; oral, 300 mg twice daily, day 21): 7.5e-05 s⁻¹
CCN1CCN(Cc2ccc(NC(=O)c3ccc(C)c(NC(=O)c4cncc(-c5cccs5)c4)c3)cc2C(F)(F)F)CC1  dose-normalised AUC (C57BL/6 mice, epithelial lining fluid; intraperitoneal, 30 mg/kg): 0.32 kg·µg·h/mL/mg
Cc1cccc(Cn2cc(CO)c3cnccc32)c1  liver histopathology score (male F344 rat, liver; oral, 100 mg/kg/day, 2 days; direction not given): 0

Repeated from above:
CC(C)[C@H](C(=O)Nc1ccc(C(=O)NO)cc1)c1ccccc1  measured concentration (whole blood; 1000 ng/mL, 1 h, 4 °C, stability on ice): 1120 ng/mL
O=C(c1cccnc1-c1ccncc1)N1CCC(O)(Cc2ccccc2)CC1  terminal elimination rate constant (healthy Japanese adults, plasma; oral, 300 mg twice daily, day 21): 7.5e-05 s⁻¹
CCN1CCN(Cc2ccc(NC(=O)c3ccc(C)c(NC(=O)c4cncc(-c5cccs5)c4)c3)cc2C(F)(F)F)CC1  dose-normalised AUC (C57BL/6 mice, epithelial lining fluid; intraperitoneal, 30 mg/kg): 0.32 kg·µg·h/mL/mg
Cc1cccc(Cn2cc(CO)c3cnccc32)c1  liver histopathology score (male F344 rat, liver; oral, 100 mg/kg/day, 2 days; direction not given): 0
